Experimental data pooled from the literature.
Parts stem from different laboratories: compare values within a part only. Positions count from the first letter of the parent shown.

Series 1 — technique: protein binding microarray; molecule type: double-stranded DNA, one strand shown; medium: in vitro; concentration: not given; baseline: not given; reading: higher = stronger binding
Target: Histone acetyltransferase KAT6A, winged helix 1, GST fusion (KAT6A, Homo sapiens, UniProt Q92794, residues 1-85)
Notes: 8-mer, flanks averaged, mean of 2 arrays, mostly near background
Residues (chain): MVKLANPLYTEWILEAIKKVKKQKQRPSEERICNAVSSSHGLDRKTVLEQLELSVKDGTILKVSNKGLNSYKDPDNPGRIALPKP
Oligonucleotide	E-score
GGGTGGGA	-0.0664
AACAATTA	-0.0317
CTGTGGAC	-0.205
AGGACCTG	-0.036
GCCGTAGA	0.314
TTCGGAAA	0.0852
CAGCCATG	-0.142
AACGAACG	0.0556
AGCTCAAC	-0.118
CCTTACTA	-0.083
CGGGGCCC	0.286
ATAGTGTA	-0.114
CGGCTTGA	0.213
ATCATCCC	-0.0474
ACATTACT	-0.0157
CAACCATC	-0.01
GGGGATCA	-0.0706
CATTACGA	0.0165
ACACATGA	-0.108
CAGGTGAG	-0.263
ATCAGGCC	-0.0552
ATTGCTTA	-0.168
GATTAGAA	-0.234
TACGTAAA	-0.00949
CGAGCGAG	0.157

Series 2 — technique: RNA Bind-n-Seq; molecule type: RNA; medium: in vitro; concentration: 365 nM; baseline: no-protein control; reading: higher = stronger binding
Target: RNA binding protein fox-1 homolog 2, RRM domain, GST-SBP tag (RBFOX2, Homo sapiens, UniProt O43251-10, residues 100-194)
Notes: natural RNA segment, single round, ends assumed
Shared flanks, not repeated: GGGAGUUCUACAGUCCGACGAUC … UGGAAUUCUCGGGUGCCAA
Residues (chain): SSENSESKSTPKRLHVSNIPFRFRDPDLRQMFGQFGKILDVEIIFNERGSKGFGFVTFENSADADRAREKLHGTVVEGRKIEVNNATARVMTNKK
Oligonucleotide	RBNS enrichment (R)
AUUGUGGGGAGGUCUACUUUAGACAACUUGGUUUUGCACAUAUUUUCUCUAAUUUCUCUGUUCAGAGCCCCAGCAGACCUUAUUACUGGGGUAAGGCAAGUCUGUUGACU	0.429
CUGAUUAGAACAGUCCAACACAGUCCGACCUCACUCAAUACCCACAACCAUCGAAAAUGGAUUCUUAGUACCAGACAAUCCCAGUAAUGAAGGUUUAGUUUCCUUGAAGG	0.568
UUUGUGAAUUUAAUGCUAUCUUGUCAAGGUACUUGCUUGUGUCUGAACUCUAGUGCACUUAUCAUUUUGUAGACCAUGUGGAAUUUAAUAAGAUACUUUUCCCCACUCCU	0.582
GGUCGCCGCCGCCGCCGCCGCCGUCAUCCUCGCCUCUCGCUUCCCUCUGGGAGCUGCGCGCGCUUCACUCACCUUCCGCUUCACUCGCCUUCCACGCUUGCUCCAGAGAC	0.481
UCCUGUGACGGGAGGGAUGGUUAAGGUACAAAGGCUAGAAACUUGAGUUUCUUCAUUUCUGUCUCACAAUUAUCAAAAGCUAGAAUUAGCUUCUGCCCUAUGUUUCUGUA	0.344
CACGGCGUCCCGCAGAGCCUAGUCUGAACCACCCCAUGCCCACCCUGUGUUCCCGAGCGCUUCCAGGACUCAUCGUGAGCAGCAGCAUGGAGGCCCCUUCCUGCUGACCU	0.517
CAUGUGCCUGUCUAUAGGUAGCAAGCAAUCUCUCCAUUUGAUCCUGUUCCAAACUAUUCCAUCAUCCUGUCCCAAUUGCCAAUAGAAAAGCUAAAAUCCCUGGCUCAGUU	0.78
CCUGCACUUCCUUUGCUUCCUCCUGUUCACCCUGGUGGUGUACGGAUGAGGCGGGGAGGUGGGACCCCCAAACAUAUAUCAGCCCAACAGCCCUAAGUCUCCUUCUUUAU	0.264
UGGCACUGGGAACAUCCUACGCAGGGACAACCUCCAAAAUUAAUGGGUGAACAUGGUUUUUUUGGAAUCAACUGAGAUAAUGCUAUUUCAAUAGCGGCUGGCUUUUUGUG	0.799
CUCACUGUAUUCUUUUUAUCCUGGGGCCACAGUUCUUGAUUAUUCCUCUUGUGGUUAAAGACUGAAUUUGUAAACCCAUUCAGAUAAAUGGCAGUACUUUAGGACACACA	0.304
GAUCAAAGAUUAUUUUCAAAAAUGAGAUAUCAAUUUGGUAUCAGUAAAAAGUGUCUUUUCUCUUAGUAUAUAAAUAAAUAAAAUGCAAAUUAAGAGUGUAAGCAGUUGUG	0.448
UUUGCUGCUAACACUGGAGGCGGUGUUCCUAACUGCAGUGUGCUGCUUACACCUCCCCGCGUGGGUAACCAAAUUUUUAAGUAGUCAGAGACAUAUCGAGGUAGUUACAU	0.259

Series 3 — technique: protein-binding microarray; molecule type: double-stranded DNA, one strand shown; medium: in vitro; concentration: not given; reading: higher = stronger binding
Target: Protein C-ets-1 (ETS1, Homo sapiens, UniProt P14921, residues 1-441, K379A, full length assumed)
Notes: k-mer, scored over probes, only values ≥0.25
Construct (chain): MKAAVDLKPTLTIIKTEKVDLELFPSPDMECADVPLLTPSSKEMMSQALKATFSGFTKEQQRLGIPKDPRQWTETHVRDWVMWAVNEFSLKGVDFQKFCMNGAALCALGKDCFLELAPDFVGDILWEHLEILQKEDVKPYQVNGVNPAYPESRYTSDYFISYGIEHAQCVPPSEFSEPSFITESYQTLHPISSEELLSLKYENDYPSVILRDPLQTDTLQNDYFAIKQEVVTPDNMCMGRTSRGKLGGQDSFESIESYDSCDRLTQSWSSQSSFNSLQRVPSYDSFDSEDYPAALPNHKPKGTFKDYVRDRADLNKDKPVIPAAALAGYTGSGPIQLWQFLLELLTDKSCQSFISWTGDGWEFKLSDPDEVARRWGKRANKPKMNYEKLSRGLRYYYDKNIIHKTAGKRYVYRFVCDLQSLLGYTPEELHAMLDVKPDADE
Oligonucleotide	E-score
CGGATAAC	0.267
CCGGTTTC	0.372
CGTAACAG	0.297
ATACTTCC	0.26
CACCGGTG	0.479
ACCGGTGG	0.371
GATAACAA	0.265
CACCCGGA	0.263
CGGTACAA	0.312
CATCCGCC	0.304
ACCGCCGG	0.345
GGTAACAC	0.27
TCCGTCAA	0.3
ATATGTAC	0.283
CCGGTGGC	0.294
CGGCACGA	0.267
CCCGCCCA	0.348

Series 4 — technique: protein-binding microarray; molecule type: double-stranded DNA, one strand shown; medium: in vitro; concentration: 2200 nM top; notes: 60-bp whole probe; with: salmon DNA 0.4 mg/ml; baseline: random background probes; reading: higher = stronger binding; shared flanks, not repeated: GCCTAGCAC … GTCTTGATTCGCTTGACGCTGCTG
Target: Interferon regulatory factor 7, full length, phosphomimetic (IRF7, Homo sapiens, UniProt Q92985, residues 1-503, S471D/S472D/S475D/S476D/S477D/S483D/S484D/S487D)
Chain of UniProt Q92985 (whole entry, unmodified, looked up): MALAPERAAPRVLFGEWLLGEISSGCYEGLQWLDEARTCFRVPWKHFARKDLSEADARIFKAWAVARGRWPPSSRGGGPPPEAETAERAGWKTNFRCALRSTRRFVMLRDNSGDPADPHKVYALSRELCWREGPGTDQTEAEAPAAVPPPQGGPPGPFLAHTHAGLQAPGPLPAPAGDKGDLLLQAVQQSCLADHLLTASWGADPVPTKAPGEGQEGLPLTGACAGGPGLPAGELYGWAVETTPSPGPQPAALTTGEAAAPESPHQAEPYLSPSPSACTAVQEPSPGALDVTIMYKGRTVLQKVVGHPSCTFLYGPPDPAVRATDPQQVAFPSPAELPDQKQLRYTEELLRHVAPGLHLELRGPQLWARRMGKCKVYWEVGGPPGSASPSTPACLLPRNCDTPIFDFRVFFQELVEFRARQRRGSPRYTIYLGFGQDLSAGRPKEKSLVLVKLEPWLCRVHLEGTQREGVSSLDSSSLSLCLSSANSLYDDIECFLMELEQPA
Oligonucleotide	fitted relative affinity [z-score]
CAGCGCGCAGCTGCCAGAACGTGCTAG	-0.434
TTAGGTTTAGGTCTCGGTTAGTGCTAG	0.619
GACGAACTGGGGACTTGAGACGTGCTA	0.122
TCAGTGCTCATTTTTTTACTGTGCTAG	0.184
GAACATACTGATTTCCACTTGTGCTAG	1.58
TTAGGTTTCGATATCGGTTAGTGCTAG	6.75
TCAGGTTTCGACACTGGGTTAGTGCTA	2.8
GACGGTCCCCTTATCCTGACGTGCTAG	0.781
TCATACTTCTCTTTTGGACTGTGCTAG	1.82
GACGATCTCAGACTGGTGACGTGCTAG	-0.0401
TTAGGACTGAGGTTTCGGTTAGTGCTA	3.81
TTAGATCTCAGTTTCTATTAGTGCTAG	2.23
TCATTAATGCTTCTGGGACTGTGCTAG	0.54
GCACGGCTCGTTATCCTATAGTGCTAG	0.774
GACGATTTCAGTGTCGAGACGTGCTAG	0.533
TTAGATTTCGGGTATAGATTAGTGCTA	1.55
AATTTTTACTTTCTGAATGCGTGCTAG	4.61
GAAGGTTTCGGTTTCGGGACGTGCTAG	15.2
GACGATATCAGAATCGAGACGTGCTAG	-0.0269
ACATGCTTCGAGATCTCCGAGTGCTAG	1.16
TCATATTTAAGGCATCTGACTGTGCTA	-0.188
TTCGAACTGAGTTTCGATTAGTGCTAG	3.78
TCAAAATTATCTTTAATACTGTGCTAG	-0.683
TTAGAACTGGGGTATCGATTTGTGCTA	0.601
TTAGGTTTCGGACTGAGTTAGTGCTAG	2.52

Series 5 — target: CCNA2, cyclin fold, Cln2 fusion (human); technique: yeast growth competition, sequencing; medium: yeast; notes: strong parent motif; baseline: not given; reading: higher = stronger binding
Parent: CDKN1B docking peptide (human); PSACRNLFGPVDH; partner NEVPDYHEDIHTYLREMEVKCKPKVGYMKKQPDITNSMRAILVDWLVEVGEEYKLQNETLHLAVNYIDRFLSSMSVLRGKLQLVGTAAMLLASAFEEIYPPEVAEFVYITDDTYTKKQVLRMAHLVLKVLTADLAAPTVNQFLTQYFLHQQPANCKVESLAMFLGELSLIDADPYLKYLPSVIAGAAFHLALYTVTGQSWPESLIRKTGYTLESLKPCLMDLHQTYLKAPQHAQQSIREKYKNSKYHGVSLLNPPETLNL
Variant	normalised enrichment score
P10R	3.8
L7P	-0.0914
S2N	3.6
S2I	3.4
P1T	4.53
L7M	0.457
C4L	2.36
A3N	0.132
P10Y	4.34
G9E	1.57
C4N	1.17
D12P	2.93
L7H	0.297
R5Q	0.391
F8P	0.373

Excerpt of the above (series 1):
Oligonucleotide	E-score
ATAGTGTA	-0.114
TTCGGAAA	0.0852
GGGTGGGA	-0.0664
CGAGCGAG	0.157
CCTTACTA	-0.083
CAGGTGAG	-0.263
TACGTAAA	-0.00949
ATCAGGCC	-0.0552
AGCTCAAC	-0.118
CGGGGCCC	0.286
